Measurements collected from several papers.
Each line is one published result; not all experiments were run side by side. Several values in a cell are separate wells, animals, samples, runs or records. ± gives the spread as reported.
B1: acsA (Pseudomonas chlororaphis, UniProt Q5CD72); chain MRDYEHVVESFDYLQSATQDLHGELTALNACVECCDRHAHGEAVALYCEAQDGHAERYRFRDLQRQAARFGNFLREQGVKPGDRVAGLMPRTVELLIAILGTWRIGAVYQPLFTAFGPKAIEQRLNCSNARWIVTDPHNRPKLDDVTDCPSIVVTGGAPQNPADHHFWSALNRQADDCAPVLLDASAPFLLMCTSGTTGPAKPLEVPLSAILAFKGYMRDAIDLRADDRFWNLADPGWAYGLYYAVTGPLACGYATLFYDGPFTVESTRHIIAKYAINNLAGSPTAYRFLIAAGAEFADAVRGRLRAVSSAGEPLNPQVVRWFAEQLGVVIHDHYGQTEIGMVLCNHHGLRHPVREGSAGYAVPGYRIVVLDKAHRELPAGQPGVLAVDRERSPLCWFDGYLGMPTQAFAGRYYLSGDIVELNDDGSISFVGRNDDLITTSGYRVGPFDVESALIEHPAVVEAAVIGKPDPQRTELIKAFVVLNTPYLPSPELAEELRLHVRQRLAAHAYPREMEFVDHLPKTPSGKLQRFILRNQEIAKQQALG
B2: NUDT3 (Homo sapiens, UniProt O95989); chain MMKLKSNQTRTYDGDGYKKRAACLCFRSESEEEVLLVSSSRHPDRWIVPGGGMEPEEEPSVAAVREVCEEAGVKGTLGRLVGIFENQERKHRTYVYVLIVTEVLEDWEDSVNIGRKREWFKIEDAIKVLQYHKPVQASYFETLRQGYSANNGTPVVATTYSVSAQSSMSGIR
B3: PYCR2 R119C (Homo sapiens, UniProt Q96C36); chain MSVGFIGAGQLAYALARGFTAAGILSAHKIIASSPEMNLPTVSALRKMGVNLTRSNKETVKHSDVLFLAVKPHIIPFILDEIGADVQARHIVVSCAAGVTISSVEKKLMAFQPAPKVICCMTNTPVVVQEGATVYATGTHALVEDGQLLEQLMSSVGFCTEVEEDLIDAVTGLSGSGPAYAFMALDALADGGVKMGLPRRLAIQLGAQALLGAAKMLLDSEQHPCQLKDNVCSPGGATIHALHFLESGGFRSLLINAVEASCIRTRELQSMADQEKISPAALKKTLLDRVKLESPTVSTLTPSSPGKLLTRSLALGGKKD
B4: aspC A106G/A17N/A218G/A278L/A281T/A8Q/D18E/F210I/F212I/F350Y/G15S/G249S/I187A/I279A/I29V/I33V/I341V/I5L/I68L/I71L/L46M/M321L/M380L/N285S/N30D/N64T/S129T/S135A/S273G/S351L/T100S/V125I/V136I/V375I/Y244C (Escherichia coli, UniProt P00509); chain MFENLTAQPADPILSLNELFRADERPGKVDLGVGVYKDETGKTPVMTSVKKAEQYLLENETTKTYLGLDGLPEFGRCTQELLFGKGSALINDKRARTAQSPGGTGGLRVAADFLAKNTSVKRVWISNPTWPNHKAIFNSAGLEVREYAYYDAENHTLDFDALINSLNEAQAGDVVLFHGCCHNPTGADPTLEQWQTLAQLSVEKGWLPLIDIAYQGFGRGLEEDAEGLRAFAAMHKELIVASSCSKNFSLYNERVGACTLVAADSETVDRAFGQMKALARTNYSSPPAHGASVVATILSNDALRAIWEQELTDMRQRIQRLRQLFVNTLQEKGANRDFSFVIKQNGMFSYLGLTKEQVLRLREEFGVYAVASGRINVAGLTPDNMAPLCEAIVAVL
B5: enzyme (Arabidopsis thaliana, UniProt Q9C969); chain GSFGMLSRRTLGTDMPVMAQIRSLMAELTNPMSLAQGVVHWQPPQKALEKVKELVWDPIISSYGPDEGLPELRQALLKKLREENKLTNSQVMVTAGANQAFVNLVITLCDAGDSVVMFEPYYFNSYMAFQMTGVTNIIVGPGQSDTLYPDADWLERTLSESKPTPKVVTVVNPGNPSGTYVPEPLLKRIAQICKDAGCWLIVDNTYEYFMYDGLKHCCVEGDHIVNVFSFSKTYGMMGWRLGYIAYSERLDGFATELVKIQDNIPICAAIISQRLAVYALEEGSGWITERVKSLVKNRDIVKEALEPLGKENVKGGEGAIYLWAKLPEGHRDDFKVVRWLAHRHGVVVIPGCASGSPGYLRVSFGGLQEVEMRAAAARLRKGIEELLHHGMVE
B6: enzyme (Plasmodium falciparum, UniProt C0H484); chain MVREAHELLDGSRPIPIDKITYELSQNIILAFDNHENINNKDIQIEIEGRVGLVIDKNKNRIKLPINTDAIIENNYSDFQAGIDRESFEYLLDYFHNMTLKKRLSIRNNDNNNNNMDNNNNNMDNNNNIHIHNSGNNTNQTHSYDKNADDNKPTCNYSYDKKNACIYDFLELKTTKSIDKYYVIKNNNSRIRTTTYLNDDNKQETESMMIQSLQKDNLNIWNVYTGNNYDYFDDDEEDDDDDYNNNNNNNNGDTGTKTNIATNNTHGLTTSKSQHIYNNLVDKNDSIDYRISINIEYTKPISKLYLSKNTPVHERLKERTTFINTYLGLQVDMTKIKTKNNELYEVEIEIPSKTIFKAMSNLRNKKDSNYLHFICSNLVNNIRGICSQLNVFKKSKHMLKNTMITKLNNNSNNQNNLSLLPNHPNDDTISSKEKEKFKKYIHSVLPIVGDY
B7: nfsB (Escherichia coli, UniProt P38489); chain MDIISVALKRHSTKAFDASKKLTPEQAEQIKTLLQYSPSSTNSQPWHFIVASTEEGKARVAKSAAGNYVFNERKMLDASHVVVFCAKTAMDDVWLKLVVDQEDADGRFATPEAKAANDKGRKFFADMHRKDLHDDAEWMAKQVYLNVGNFLLGVAALGLDAVPIEGFDAAILDAEFGLKEKGYTSLVVVPVGHHSVEDFNATLPKSRLPQNITLTEV
B8: enzyme (Chlamydomonas reinhardtii, UniProt A0A2K3D977); chain ASDSVLAVWRKADAVCFDVDCTITVNDSLDLLAEFMGVKEQVEILTNKAMDGSLSLEQALEERLNIINCSPDDIKRFIKAHPPASRMAPGIKELINSLQARGKAIYLISGGFRELTLPIAAYLGIPKENVFANRMNWQWDDETGMPTKLVGFDMSEPTAHNQGKPQAIARIRQRNPYNTVVMIGDGITDLEAVQTTGGADLFIGSGVVVERPAVAREADWYVYDYTDLLRTMARYSVAMVGSGAWACAAVRMIAQNTQVDDAADEFVDEVRMWVYEEDFEGKKLTEVINQTHTNPKYFPGFDLGPNVVAVPNIVDAVADADLIVFCAPHQFLHHICKQLVGKIKPGAAAISLTKGMRVRPEGPQLISQMVRRLLGIDCCVLMGANIATDIGREQLSEAVIGYDNLDAATLFQKIFQRPYFRVNLLPDPVGAEMCGTLKNIVALGAGMVDGLGLGPNSKAAIIRQGLVEMRAFSKALYPSVRDDTFMESCGVGDLVATCYGGRNRLVACEWTKAQMEGKPRTFEDLETDLLKGQKLQGVLTSNEVQEILKVRGWESQYPLFTTVNRIINGYLPPKYVVEFVAGAKYHIRRPGTDDEEIVPVRPKRPAAAGGVATAPILAA
B9: enzyme S252E/S281E/S285E/S287E (Schizosaccharomyces pombe, UniProt P78804); chain MSTPYEPEFQQAYKEIVGSIESSKLFEVHPELKRVLPIISIPERVLEFRVTWEDDKGNCRVNTGYRVQFNSALGPYKGGLRFHPSVNLSILKFLGFEQIFKNALTGLPMGGGKGGSDFDPKGKSDNEIRRFSQAFMRQLFRYIGPQTDVPAGDIGVTGFVVMHMFGEYKRLRNEYSGVVTGKHMLTGGSNIRPEATGYGVVYYVKHMIEHRTKGAETLKGKRVAISGSGNVAQYAALKCIQEGAIVKSISDEKGVLIAKTAEGLVPEEIHEIMALKEKRAEIADEAELCKKHHYIAGARPWTNVGEIDIALPCATQNEVSGEEAAALIKQGCRYVAEGSNMGSSAEAVEVFEKSRASGEGCWLAPGKAANAGGVAVSGLEMAQNAQFSTWTHAEVDAKLAGIMQNIFEQSTDVASKYCDSGSNNIPSLVDGANIAGFLKVATAMQAVGDWW
Sequence of UniProt P09546 (whole entry, looked up): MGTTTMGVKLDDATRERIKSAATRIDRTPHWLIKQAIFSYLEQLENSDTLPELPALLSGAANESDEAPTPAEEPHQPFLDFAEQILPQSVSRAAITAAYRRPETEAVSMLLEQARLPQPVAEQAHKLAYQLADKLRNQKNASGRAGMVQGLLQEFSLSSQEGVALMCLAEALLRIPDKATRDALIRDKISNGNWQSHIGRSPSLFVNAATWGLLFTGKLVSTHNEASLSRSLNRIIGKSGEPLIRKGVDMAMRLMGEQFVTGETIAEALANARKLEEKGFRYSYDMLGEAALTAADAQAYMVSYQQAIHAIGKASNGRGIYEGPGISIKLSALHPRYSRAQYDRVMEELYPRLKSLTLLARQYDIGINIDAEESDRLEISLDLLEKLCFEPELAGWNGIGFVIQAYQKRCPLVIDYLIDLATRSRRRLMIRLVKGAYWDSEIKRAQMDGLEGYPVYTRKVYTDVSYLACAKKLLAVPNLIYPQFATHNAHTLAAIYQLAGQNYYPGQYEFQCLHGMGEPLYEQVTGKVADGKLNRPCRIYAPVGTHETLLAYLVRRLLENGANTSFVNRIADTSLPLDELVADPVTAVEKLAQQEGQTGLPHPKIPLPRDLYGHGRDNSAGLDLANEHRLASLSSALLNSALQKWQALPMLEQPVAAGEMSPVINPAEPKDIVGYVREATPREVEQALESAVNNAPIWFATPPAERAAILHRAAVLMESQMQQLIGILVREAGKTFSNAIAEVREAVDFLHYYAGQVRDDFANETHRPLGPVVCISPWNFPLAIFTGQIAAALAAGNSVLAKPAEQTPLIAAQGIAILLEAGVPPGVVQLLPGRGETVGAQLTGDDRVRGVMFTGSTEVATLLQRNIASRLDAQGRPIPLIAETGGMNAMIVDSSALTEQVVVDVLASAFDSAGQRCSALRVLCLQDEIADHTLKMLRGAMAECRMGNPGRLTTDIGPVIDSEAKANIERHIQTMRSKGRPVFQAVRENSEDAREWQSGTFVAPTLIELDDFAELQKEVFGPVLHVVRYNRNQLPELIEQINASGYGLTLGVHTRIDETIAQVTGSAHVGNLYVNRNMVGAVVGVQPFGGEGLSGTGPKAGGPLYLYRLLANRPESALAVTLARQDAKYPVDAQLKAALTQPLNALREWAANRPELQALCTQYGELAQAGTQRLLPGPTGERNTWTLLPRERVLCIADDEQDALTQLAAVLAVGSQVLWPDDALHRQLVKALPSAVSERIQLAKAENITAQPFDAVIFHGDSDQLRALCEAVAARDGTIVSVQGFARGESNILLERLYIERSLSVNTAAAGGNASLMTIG

Molecule = durvalumab; test system = human, plasma; conditions = intravenous, 1500 mg, cycle 4 day 1, with: adavosertib 200 mg once daily; measurement = Cmax; result = 512 µg/mL
Molecule = enzyme K123A (Homo sapiens, UniProt Q08623); tested on = O=c1[nH]cc([C@@H]2O[C@H](COP(=O)(O)O)[C@@H](O)[C@H]2O)c(=O)[nH]1; test = steady-state kinetics; conditions = pH 7, 25 °C; measurement = kcat/Km; result = 71700 M⁻¹ s⁻¹
Molecule = putA (Escherichia coli, UniProt P09546); tested on = COC1=C(OC)C(=O)C(CC=C(C)C)=C(C)C1=O; test = steady-state kinetics; conditions = pH 7.4, 20 °C, with: proline 200 mM; measurement = kcat/Km; result = 31000 ± 4600 M⁻¹ s⁻¹
Molecule = B1 (acsA); tested on = O=C(O)CCC(F)(F)F; test = steady-state kinetics; conditions = pH 7; measurement = kcat/Km; result = 16.7 ± 16.7 M⁻¹ s⁻¹
Molecule = insulin degludec; test system = human; conditions = subcutaneous, 0.4 IU/kg, 2 FC level, single dose, reference formulation; measurement = AUC0−12; result = 128 ± 33 ng·h/mL
Molecule = B2 (NUDT3); tested on = Nc1ncnc2c1ncn2[C@@H]1O[C@H](COP(=O)(O)OP(=O)(O)OP(=O)(O)OP(=O)(O)OP(=O)(O)OC[C@H]2O[C@@H](n3cnc4c(N)ncnc43)[C@H](O)[C@@H]2O)[C@@H](O)[C@H]1O; test = steady-state kinetics; conditions = with: Mg2+; measurement = kcat/Km; result = 16 M⁻¹ s⁻¹
Molecule = B3 (PYCR2 R119C); tested on = O=C(O)[C@@H]1CCC=N1; test = steady-state kinetics; conditions = pH 7.5, 37 °C, apparent, with: NADH 500 µM; measurement = kcat/Km; result = 250 ± 80 M⁻¹ s⁻¹
Molecule = enzyme (Treponema denticola, UniProt Q73LY9); tested on = CC(=O)N[C@H]1[C@H](Oc2ccc([N+](=O)[O-])cc2)O[C@H](CO)[C@@H](O)[C@@H]1O[C@@H]1O[C@H](CO)[C@H](O)[C@H](O)[C@H]1O; test = steady-state kinetics; conditions = pH 6, 40 °C; measurement = kcat/Km; result = 100 M⁻¹ s⁻¹
Molecule = HNL E79H/K236M/T11G (Hevea brasiliensis); tested on = CC(=O)Oc1ccc([N+](=O)[O-])cc1; test = steady-state kinetics; conditions = pH 7.2, 22 °C; measurement = kcat/Km; result = 7.67 M⁻¹ s⁻¹
Molecule = B4; tested on = N[C@@H](Cc1ccc(O)cc1)C(=O)O; test = steady-state kinetics; conditions = pH 7.5, 25 °C, with: PMP 20 µM; measurement = kcat/Km; result = 210 M⁻¹ s⁻¹
Molecule = B5 (enzyme); tested on = O=C(O)C(=O)Cc1ccccc1; test = steady-state kinetics; measurement = kcat/Km; result = 43700 M⁻¹ s⁻¹ and 25300 M⁻¹ s⁻¹
Molecule = B6 (enzyme); tested on = Nc1nc2c(ncn2[C@@H]2O[C@H](COP(=O)(O)OP(=O)(O)OP(=O)(O)O)[C@@H](O)[C@H]2O)c(=O)[nH]1; test = steady-state kinetics; conditions = with: Mn2+; measurement = kcat/Km; result = 21000 ± 2000 M⁻¹ s⁻¹
Molecule = enzyme (Pseudomonas poae, UniProt A0A2S9EJ63); tested on = COc1cc(CO)ccc1O; test = steady-state kinetics; conditions = pH 8, 30 °C; measurement = kcat/Km; result = 413 M⁻¹ s⁻¹
Molecule = enzyme N248Y/Q325R/R246H/R328K (Arabidopsis thaliana, UniProt O24495); tested on = C[C@@H](O)C(=O)SC[C@H](NC(=O)CC[C@H](N)C(=O)O)C(=O)NCC(=O)O; test = steady-state kinetics; conditions = pH 7.2, 25 °C; measurement = kcat/Km; result = 70000 ± 50000 M⁻¹ s⁻¹
Molecule = B7 (nfsB); tested on = NC(=O)N/N=C/c1ccc([N+](=O)[O-])o1; test = steady-state kinetics; conditions = pH 7, 37 °C, with: NADPH 110 µM; measurement = kcat/Km; result = 1.4e+06 ± 180000 M⁻¹ s⁻¹
Molecule = B8 (enzyme); tested on = NC(=O)C1=CN([C@@H]2O[C@H](COP(=O)(O)OP(=O)(O)OC[C@H]3O[C@@H](n4cnc5c(N)ncnc54)[C@H](O)[C@@H]3O)[C@@H](O)[C@H]2O)C=CC1; test = steady-state kinetics; conditions = pH 7.5, with: DHAP 5 mM; measurement = kcat/Km; result = 3.2e+06 ± 300000 M⁻¹ s⁻¹
Molecule = B9 (enzyme S252E/S281E/S285E/S287E); tested on = NC(=O)c1ccc[n+]([C@@H]2O[C@H](COP(=O)(O)OP(=O)(O)OC[C@H]3O[C@@H](n4cnc5c(N)ncnc54)[C@H](O)[C@@H]3O)[C@@H](O)[C@H]2O)c1; test = steady-state kinetics; conditions = pH 7, 30 °C, apparent; measurement = kcat/Km; result = 120 ± 10 M⁻¹ s⁻¹
Molecule = Neuropeptide Y; test = RP-HPLC; test system = HALO Phenyl-hexyl column; conditions = 25 µM, acetic acid/acetonitrile, 10 min gradient; measurement = retention time; result = 5.15 min
